Experimental data gathered from unrelated publications.
Numbered parts are unrelated; each lists some results of a single study.

Sample 1
Target: RING finger protein unkempt homolog, zinc fingers 1-6, GST-SBP tag (UNK, Homo sapiens, UniProt Q9C0B0, residues 30-357)
Sequence of UniProt Q9C0B0 (30-357, looked up): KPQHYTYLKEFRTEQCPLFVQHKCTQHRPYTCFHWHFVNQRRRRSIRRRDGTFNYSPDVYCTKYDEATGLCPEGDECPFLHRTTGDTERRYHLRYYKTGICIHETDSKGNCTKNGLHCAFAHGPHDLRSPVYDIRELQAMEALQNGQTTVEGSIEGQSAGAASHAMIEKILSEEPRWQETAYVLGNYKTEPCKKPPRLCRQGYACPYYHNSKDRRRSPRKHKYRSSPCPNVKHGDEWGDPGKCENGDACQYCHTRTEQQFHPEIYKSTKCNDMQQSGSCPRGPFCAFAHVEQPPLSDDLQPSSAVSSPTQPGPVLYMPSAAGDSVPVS
Method: RNA Bind-n-Seq
Form: RNA
Matrix: in vitro
Concentration: not given
Notes: RNA with constant flanks, human and mouse sites, ends assumed
Reference: input RNA pool
Direction: higher = stronger binding
Quantity: bound/input enrichment
All sequences stand within: GGGAGUUCUACAGUCCGACGAUC … CAACAGAGGAUUGAGCAUCA
CAGCUUUCAUUACCCCUGAACUUUCUGGGAACUGUAUAUAGAGAGACUAGACAAGCACUCAUAGAUAUGAACACCUUGUUUACUCUACUCAAGGUAGACACCCAAAUUAAAGACAAAGUG: 0.532 ratio
UUCACACUGGAUUACAACUACCCACUUUGUGCAGUACAGGCCUUUGGCAUCGGUCUUUCUAGCUUUGACAGUAAGCUGGCGUGUGAAUGAGAGAACAGUCAGGCAGGGAGCCCUUCUCCC: 0.186 ratio
CAGAUAGCAUCAUUAAGAUCAGUUUUAAGGGGUAUAGGGAGGGUGAGGGAAGUGGGGGGUGUUAGGUAAGGGUUGGGGGUAGAGGUUUUGGGAUGUCUUAGUUAGAAACCAGAUUAAUAG: 27.8 ratio
UUCAGCAGUGAUCCCUUCAAUUUCAACAGUCAAAAUGGUGUGAACAAGGAUGAGAAGGACCACUUAAUUGAGCGACUAUACAGAGAGAUCAGUGGAUUGAAGGCACAGCUAGAAAACAUG: 0.689 ratio
AAUGCCUACCUUCAGAGCCAGGCCACAGCUACAGACUGGCACGAGAAACAUGAUUACGUUCACCCCCACCAGGGCGUCCCGGACACUCUCACGGGUCCAGAUCUCAAAGAACACCUCAUU: 0.106 ratio
AUGGGCUUUGAUGCUCUUCUCCACAAUGCUAACCCCCUCCCUGUCUUAACCAAUACCGUGUUCCUGACUGUUACUGCUCCACUGACUCUGCCUUGGGACCAUAUCCAAAGUACAUUGCUC: 0.801 ratio
GAGGAGAAGCAACGGGAGCUGGCCCGGAAGGGUUCCCUGAAGAACGGCAGCAUGGGCAGCCCUGUCAACCAGCAACCCAAGAAGAACAACGUCAUGGCCCGGACGAGGCUGGUCGUCCCU: 0.147 ratio
CAAAGGAACAAUGUGCAAUUGAUAUGUUUUUAGAUGAGAGAGAAAAAUUAAAGCUAAAAUUAGCUGCAAAGAAGUAUUAAUAAUCACCUCUGCAAAAAUUCUAAGUUGCCAACUGGCAAA: 1.14 ratio

Sample 2
Target: Sal-like protein 4, full length isoform B (SALL4, Homo sapiens, UniProt Q9UJQ4-2, residues 1-616)
Method: universal PBM
Form: double-stranded DNA, one strand shown
Matrix: in vitro
Concentration: not given
Notes: 8-mer, flanks averaged, mean of replicates
Direction: higher = stronger binding
Quantity: E-score
CGGATTAG: -0.0371
ACCCTACG: -0.0839
CGGTCATC: -0.236
ATGGGTAC: 0.0672
ACGACTTG: -0.0619
ACGAGCAC: -0.148
TCGTCTAA: -0.0615
CCACCAAC: -0.148
CATAAACA: 0.351
CGCCTCAA: -0.0541
GGGCCAAA: -0.18
GAACGAGA: -0.0149
TGACTTAA: 0.129
AACCGGGT: -0.337
CAGACTCA: -0.113
CAAATATG: 0.392

Sample 3
Target: Ras GTPase-activating protein-binding protein 1, RRM domain (G3BP1, Homo sapiens, UniProt Q13283)
Sequence of UniProt Q13283 (whole entry, looked up): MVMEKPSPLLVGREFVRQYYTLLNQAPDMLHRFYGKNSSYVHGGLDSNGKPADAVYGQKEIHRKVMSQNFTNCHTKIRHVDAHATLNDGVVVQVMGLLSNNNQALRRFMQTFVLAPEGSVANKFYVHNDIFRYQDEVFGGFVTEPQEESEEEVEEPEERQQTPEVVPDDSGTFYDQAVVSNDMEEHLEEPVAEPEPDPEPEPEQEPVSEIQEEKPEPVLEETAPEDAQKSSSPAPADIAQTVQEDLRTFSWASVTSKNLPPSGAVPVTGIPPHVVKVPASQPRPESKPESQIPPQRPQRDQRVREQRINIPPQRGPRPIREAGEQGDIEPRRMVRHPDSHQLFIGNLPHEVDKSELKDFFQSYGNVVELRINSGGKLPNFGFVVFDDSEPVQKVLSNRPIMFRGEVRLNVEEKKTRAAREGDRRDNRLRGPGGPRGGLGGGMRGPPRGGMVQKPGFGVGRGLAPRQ
Method: RNA Bind-n-Seq
Form: RNA
Matrix: in vitro
Concentration: 1 µM
Notes: whole 134-nt RNA, ends assumed
Added: 150 mM KCl
Reference: input library
Direction: higher = stronger binding
Quantity: log2 enrichment
All sequences stand within: GGGAGUUCUACAGUCCGACGAUC … UGGAAUUCUCGGGUGUCAAGG
CACAGACAACACGCACCCACACUGACACAGAGGGAAGGGGUUGGGAUGGGGACAGGGUGCACAGCAGGGCGGGGUAGGACCCCAGCCCCU: -0.0838
UCCUGUGCUACACAUCGUAUGUACCGAAUCGGGGAGGGGUUUUUGGGGUUUUUUUGGGGAAAGUAUUAUGUUACGCCGUUCGGAUCUGCA: 0.706
CAAGUCCUGUGCUACACAUCGUAUGUACCGAAUCGGUUUGGUUUGGAAAAAAAGGAAAGUAUUAUGUUACGCCGUUCGGAUCUGCACUUC: -0.24
CCUGUGCUACACAUCGUAUGUACCGAAUCGGUUUUUUGGGUUUUUUGGGGUUUUUUGGGGAAAGUAUUAUGUUACGCCGUUCGGAUCUGC: -0.296
UCCUGUGCUACACAUCGUAUGUACCGAAUCGGGGUUUGGGGUUUGGGGUUUUUUUGGGGAAAGUAUUAUGUUACGCCGUUCGGAUCUGCA: 1.51
UCCUGUGCUACACAUCGUAUGUACCGAAUCGGGGAAAAAAAGGGGUUUUUGGGGUGGGGAAAGUAUUAUGUUACGCCGUUCGGAUCUGCA: 0.843
UCCUGUGCUACACAUCGUAUGUACCGAAUCAAACCCAAACCCCCCCAAAUUUUUUUAAAAAAGUAUUAUGUUACGCCGUUCGGAUCUGCA: -0.239
CCUCAAGUCCUGUGCUACACAUCGUAUGUACCGAAUCGGGUGGUGGGGUGGGGAAAGUAUUAUGUUACGCCGUUCGGAUCUGCACUUCCA: 0.258
UGGGAGGUGGAUUUUGUUUAUUUUUUUAGCUCAUUUCCAGGGGUGGGAAUUUUUUUUUAAUAUGUGUCAUGAAUAAAGUUGUUUUUGGAA: 1.05

Sample 4
Target: Histone acetyltransferase KAT6A, winged helix 1, GST fusion (KAT6A, Homo sapiens, UniProt Q92794, residues 1-85)
Method: protein binding microarray
Form: double-stranded DNA, one strand shown
Matrix: in vitro
Concentration: not given
Notes: 8-mer, flanks averaged, mean of 2 arrays, mostly near background
Reference: not given
Direction: higher = stronger binding
Quantity: E-score
Residues (chain): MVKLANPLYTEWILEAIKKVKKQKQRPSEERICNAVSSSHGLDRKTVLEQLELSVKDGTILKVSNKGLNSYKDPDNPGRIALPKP
CACTAATG: -0.129
CCGATTGC: 0.217
CAAATGAG: -0.347
AGGGCTAT: -0.154
GATCGATA: -0.0301
CTAACCAC: -0.155
AAGTCCAG: -0.22
AGTCAGCG: 0.163
GTTCCGCA: 0.177
CAGTGAGA: -0.394
ATTACGCG: 0.271
CAACATAC: 0.00545
GGAGATCA: -0.098
GTCATACA: -0.0378
GACTTGCC: -0.0591
AGAGCTAC: -0.00201
AATCGCGC: 0.359
GAACGAGC: -0.0625
CGGAACTC: 0.0199
CCGATACC: 0.24
ATTAGCAG: -0.153
ACGGAGCG: 0.35

Sample 5
Target: RNA binding protein fox-1 homolog 2, RRM domain, GST-SBP tag (RBFOX2, Homo sapiens, UniProt O43251-10, residues 100-194)
Method: RNA Bind-n-Seq
Form: RNA
Matrix: in vitro
Concentration: 365 nM
Notes: natural RNA segment, single round, ends assumed
Reference: no-protein control
Direction: higher = stronger binding
Quantity: RBNS enrichment (R)
All sequences stand within: GGGAGUUCUACAGUCCGACGAUC … UGGAAUUCUCGGGUGCCAA
Construct (chain): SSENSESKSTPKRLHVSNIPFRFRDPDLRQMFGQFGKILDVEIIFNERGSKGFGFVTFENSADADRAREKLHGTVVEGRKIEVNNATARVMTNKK
GGUGUAUCCUUUUCCUUUCAACACAGUGCAGAUAAGAGUUGAAUAUUGAUAUCAUACAUUUAGACUGCUGUUCUGAUUGCAUUUAUCUUUUUCCUACAUCAUUUAGAAUU: 0.587
UUCAUGGUUCAUGUGAAACGUGAUAUCACUGGGCUGCCAAAGCACAAAUGAGUCAGUAUUCUUGGGCAGAAGUGAACAUCCCAAGGAUUCAACAGGGAAUAAACAGGCUC: 0.4
AAAGACCUCUCGCCUCUACGUGGCACCUGGAAUUGGGGCGCACAGGGAGGGGCCGAUGCUGCCACCACCCAGCCUUCUCUUUAUUUUCAGUGCUUUUUGUUUGGCCUCCC: 0.216
AAGUAACCAUAUGCUAUAAGCAUUUGAAUAUGUUUAAUUUUAUCAUAAUAGCAUCUGUAAAAGUACAUCUUACACAUUAUAUAGAGGGUUCUUGUUUGAAAUUUUCAGUU: 1.39
AUGGUGUAUUCACUCUUGGAAAAUAUGUAAUAGUUGUGUAUCCAGAAUAUGUGUCUUCACCUGAAUAUUUAAUCUUUAUAUUUACAAAAAAAUAAGUUCCACAAGAUGGA: 0.553
ACAUUUGUAACUCUUAGUUAGACUUUCUAUUAAAUGGGACCAAAUGUGUGUAUGGGUGCUGUCAGUCUGCUUCAGUCUAGCCAGUCCAGUAUCUCCAAGAUGAGACUCAA: 0.226
UUUCUGCUGACAACUUAGGUUGUAUGAGUUAUGCUUAAAAGCUUUAAAUCGGAUGUUUCCUGUACCUGCCACACUAUGUUAGAAUGUGUCCUUCAACCAUAUCCUGCAAC: 0.409
CCGGCCCGGCCCCGAGAGCAGGCUCGACCGCCGCCCCAUGGACCCCUCGCCCAGGCCGGGGCUGGAGGGAUUCGGCCGCGGCUCCGGUCCUGGGCGCUUCCCUUUUAAGC: 0.568

For quick reference, copied from above (sample 1):
UUCACACUGGAUUACAACUACCCACUUUGUGCAGUACAGGCCUUUGGCAUCGGUCUUUCUAGCUUUGACAGUAAGCUGGCGUGUGAAUGAGAGAACAGUCAGGCAGGGAGCCCUUCUCCC: 0.186 ratio
CAGAUAGCAUCAUUAAGAUCAGUUUUAAGGGGUAUAGGGAGGGUGAGGGAAGUGGGGGGUGUUAGGUAAGGGUUGGGGGUAGAGGUUUUGGGAUGUCUUAGUUAGAAACCAGAUUAAUAG: 27.8 ratio
UUCAGCAGUGAUCCCUUCAAUUUCAACAGUCAAAAUGGUGUGAACAAGGAUGAGAAGGACCACUUAAUUGAGCGACUAUACAGAGAGAUCAGUGGAUUGAAGGCACAGCUAGAAAACAUG: 0.689 ratio
AAUGCCUACCUUCAGAGCCAGGCCACAGCUACAGACUGGCACGAGAAACAUGAUUACGUUCACCCCCACCAGGGCGUCCCGGACACUCUCACGGGUCCAGAUCUCAAAGAACACCUCAUU: 0.106 ratio
